Earlier results as cited in several papers.
Numbered parts are unrelated; values within a part may stem from several laboratories. Converted amounts (≈) assume the structure as drawn.

Sample 1 — organism: Cryptosporidium parvum; technique: high-throughput screen; tested at: concentration not given
SMILES	activity
CC[C@H]1OC(=O)[C@H](C)C(=O)[C@H](C)[C@@H](O[C@@H]2O[C@H](C)C[C@H](N(C)C)[C@H]2O)[C@](C)(OC)C[C@@H](C)C(=O)[C@H](C)[C@H]2N(CCCCn3cnc(-c4cccnc4)c3)C(=O)O[C@]12C	inactive
COc1c(N2CCNC(C)C2)c(F)cc2c(=O)c(C(=O)O)cn(C3CC3)c12 (stereo not drawn)	inactive
CCC(C)n1ncn(-c2ccc(N3CCN(c4ccc(OCC5COC(Cn6cncn6)(c6ccc(Cl)cc6Cl)O5)cc4)CC3)cc2)c1=O (stereo not drawn)	inactive
C[C@H](N[C@@H](CCc1ccccc1)C(=O)O)C(=O)N1CCC[C@H]1C(=O)O	inactive
CCCCC(=O)O[C@H]1CC[C@H]2[C@@H]3CCc4cc(O)ccc4[C@H]3CC[C@]12C	inactive
CC(=O)CCCCn1cnc2c1c(=O)n(C)c(=O)n2C	inactive
CC(C)(C)NC[C@H](O)COc1nsnc1N1CCOCC1	inactive
O=C(c1ccccc1)c1ccc2n1CCC2C(=O)O (stereo not drawn)	inactive
CO[C@H]1O[C@@H]2O[C@@]3(C)CC[C@H]4[C@H](C)CC[C@@H]([C@H]1C)[C@@]24OO3	inactive
CN(C/C=C/C#CC(C)(C)C)Cc1cccc2ccccc12	inactive
C[C@@](Cc1ccc(O)c(O)c1)(NN)C(=O)O	inactive
C[C@H]1C[C@H]2[C@@H]3CCC4=CC(=O)C=C[C@]4(C)[C@@]3(Cl)[C@@H](O)C[C@]2(C)[C@@]1(O)C(=O)CO	inactive

Mixed results
SMILES	tested on	assay	test system	conditions	how to read	measurement	result
CC(C)(O/N=C(\C(=O)N[C@@H]1C(=O)N2C(C(=O)[O-])=C(C[N+]3(CCNC(=O)c4ccc(O)c(O)c4Cl)CCCC3)CS[C@H]12)c1csc(N)n1)C(=O)O	NDM-9	hydrolysis by enzyme, substrate				kcat	7 s⁻¹
Nc1cnc(N2CCc3cc(S(=O)(=O)Nc4c(F)cc(Cl)cc4F)cc(N4CCCC4=O)c32)nc1	MGAT2 (human)	enzyme activity				IC50	0.53 µM
CC1(C)S[C@@H]2[C@H](NC(=O)[C@H](N)c3ccccc3)C(=O)N2[C@H]1C(=O)O	Micrococcus flavus					MIC	0.031 to 4 µg/mL (≈ 0.0887 to 11.4 µM)
C=C(NC(=O)c1csc(-c2nc3c(cc2OC2OC(C)C(OC)C(OC)C2O)-c2nc(cs2)C(=O)N[C@@H]([C@@H](C)O)C(=O)N/C(=C(\C)OC)c2nc(cs2)C(=O)N[C@@H]2c4nc(c(OC5OC(C)C(OC6CCC(OC7CC(O)C(O)C(C)O7)C(C)O6)C(OC)C5OC)s4)C(=O)N[C@@H](COC(=O)c4c5c6c(cccc6n4O)COC(=O)C(O)C2OC5)c2nc-3cs2)n1)C(N)=O (stereo partly drawn)	Staphylococcus aureus		MRSA			MIC	0.025 µg/mL (≈ 0.0133 µM)
O=C([C@H]1C[C@H](O)CN1c1ccc(Cl)cc1)N1CC2COCC(C1)N2Cc1ccc(Cl)cc1	CCR1	biochemical				IC50	1.2 µM
O=c1c(O[C@@H]2O[C@H](CO)[C@H](O)[C@H](O)[C@H]2O)c(-c2ccc(O)c(O)c2)oc2cc(O)cc(O)c12						logP	0.4
O=C(N[C@H](CO)[C@H](O)c1ccc([N+](=O)[O-])cc1)C(Cl)Cl	Bacillus subtilis					MIC	1 to 8 µg/mL (≈ 3.09 to 24.8 µM)
CN([C@@H]1CCc2c(CC(=O)O)c3ccccc3n2C1)S(=O)(=O)c1ccc(F)cc1	PTGDR2	cellular activity				IC50	0.003 µM
CC(=O)O[C@@H]1CC[C@@]2(C)[C@@H](CC[C@]3(C)[C@@H]2C(=O)C=C2[C@@H]4[C@@H](C)[C@H](C)CC[C@]4(C)CC[C@]23C)[C@@]1(C)C(=O)O				oral		half-life	4 h
O=c1cc(-c2ccc(O)cc2)oc2c([C@@H]3O[C@H](CO)[C@@H](O)[C@H](O)[C@H]3O)c(O)cc(O)c12						logP	0.2
CCCCCCCN(CC)CCCC(O)c1ccc(NS(C)(=O)=O)cc1 (stereo not drawn)			AF patients	dose not given	baseline: patients	ventricular tachycardia incidence	3.6%
CC1=C(C#N)C(c2ccc3c(c2)c(NC(=O)c2ccccc2C)nn3C)C(C#N)=C(C)N1	PRKAA1	enzyme activity				IC50	> 20 µM

A few entries again (mixed results):
SMILES	tested on	assay	test system	conditions	how to read	measurement	result
CC(=O)O[C@@H]1CC[C@@]2(C)[C@@H](CC[C@]3(C)[C@@H]2C(=O)C=C2[C@@H]4[C@@H](C)[C@H](C)CC[C@]4(C)CC[C@]23C)[C@@]1(C)C(=O)O				oral		half-life	4 h
O=c1cc(-c2ccc(O)cc2)oc2c([C@@H]3O[C@H](CO)[C@@H](O)[C@H](O)[C@H]3O)c(O)cc(O)c12						logP	0.2
